{"data": "Published values pooled from the literature", "note": "Compare with care: the assays were run in different laboratories. Numbers after ± are the reported error."}
{"Compound": "CCOC(=O)C1=C(C)NC(=O)N[C@@H]1/C=C/c1ccc(OC)cc1", "cell line": "FR2 and A549", "assay": "MTT", "how to read": "relative to: IC50 FR2 over IC50 A549", "measurement": "selectivity ratio", "result": "> 10 fold"}
{"Compound": "C=C(C)[C@@H]1CC[C@]2(C(=O)OCO/N=[N+](\\[O-])N3CCCC3)CC[C@]3(C)[C@H](CC[C@@H]4[C@@]5(C)CC[C@H](OC(C)=O)C(C)(C)[C@@H]5CC[C@]43C)[C@@H]12", "cell line": "B16-F10", "assay": "Griess, measured: nitrite and nitrate", "conditions": "10 µM, 12 h", "measurement": "NO release", "result": "~80%"}
{"Compound": "CCC12CCc3c(c4ccccc4n3C)CCN(CC3OC31)C2 (stereo not shown)", "cell line": "BV-2", "assay": "ELISA", "conditions": "25 µM, added: LPS", "how to read": "relative to: LPS alone", "measurement": "IL-6 level", "result": "< 8.8%"}
{"Compound": "COc1cc(CNC(=O)C[C@H](C)CCC=C(C)C)ccc1OCc1cn(-c2ccccc2Cl)nn1", "cell line": "SF-268 CNS cancer cells", "assay": "SRB", "conditions": "10 µM, 48 h", "measurement": "growth percent", "result": "82.4%"}
{"Compound": "CCNc1cc2c(cc1C)C1(c3cc(C)c(NCC)cc3O2)c2ccccc2C(=O)N1N=Cc1c[c-]c(-c2ccccn2)cc1.Cc1c(C)c(-c2ccc(-c3ccccc3)cc2)[c-](C)c1C.[Cl-].[Ir+3]", "cell line": "A549", "assay": "JC-1 flow cytometry", "conditions": "2.0 × IC50, 24 h", "measurement": "JC-1 monomer cells", "result": "3.86%"}
{"Compound": "COc1cc(CNC(=O)C[C@H](C)CCC=C(C)C)ccc1OCc1cn(-c2cccc(C(F)(F)F)c2)nn1", "cell line": "OVCAR-3 ovarian cancer cells", "assay": "SRB", "conditions": "10 µM, 48 h", "measurement": "growth percent", "result": "103%"}
{"Compound": "CC(=O)OC[C@H]1O[C@@H](Sc2sc(C(=O)c3ccc(Br)cc3)c(N)c2-c2nc3ccccc3s2)[C@H](OC(C)=O)[C@@H](OC(C)=O)[C@H]1OC(C)=O", "cell line": "M14", "assay": "SRB", "conditions": "10 µM, 48 h", "how to read": "relative to: untreated", "measurement": "growth", "result": "96.1%"}
{"Compound": "COc1cc(CNC(=O)C[C@H](C)CCC=C(C)C)ccc1OCc1cn(-c2ccccc2F)nn1", "cell line": "OVCAR-4 ovarian cancer cells", "assay": "SRB", "conditions": "10 µM, 48 h", "measurement": "growth percent", "result": "71.4%"}
{"Compound": "FC(F)(F)c1ccnc(-c2cc(C(F)(F)F)ccn2)c1.FC(F)(F)c1ccnc(-c2cc(C(F)(F)F)ccn2)c1.[Cl-].[Cl-].[Ru+2].c1csc(-c2ccc(-c3ccc(-c4ccc(-c5nc6c7cccnc7c7ncccc7c6[nH]5)s4)s3)s2)c1", "cell line": "SK-MEL-28", "assay": "cell viability", "conditions": "hypoxia, added: green light 523 nm", "how to read": "relative to: dark EC50 over light EC50", "measurement": "phototherapeutic index", "result": 90}
{"Compound": "CCCCCCCCCCCCOc1c(O)cc(C(=O)OC2Cc3c(O)cc(O)cc3OC2c2cc(O)c(O)c(O)c2)cc1O (stereo not shown)", "cell line": "U-87 MG", "assay": "Western blot, measured: BCL-XL", "conditions": "50 µM, 24 h", "how to read": "relative to: untreated", "measurement": "protein level", "result": "decreased"}
{"Compound": "COc1cc(CNC(=O)C[C@H](C)CCC=C(C)C)ccc1OCc1cn(-c2ccc([N+](=O)[O-])cc2)nn1", "cell line": "Malme-3M melanoma cells", "assay": "SRB", "conditions": "10 µM, 48 h", "measurement": "growth percent", "result": "76.2%"}
{"Compound": "[Cl][Pd-]1([Cl])[S]C(Nc2ccccc2)=N[N+]1=Cc1ccc(-c2ccccc2)s1", "cell line": "HEL human lung fibroblasts", "assay": "altered cell morphology, microscopy", "conditions": "confluent cultures", "measurement": "cytotoxic concentration", "result": "≥ 100 µM"}
{"Compound": "C[C@@H](NC(=O)Cc1ccc(Cl)c(SC2C(=O)CC(c3c(Cl)cccc3Cl)CC2=O)c1)c1cccc2ccccc12 (stereo partly shown)", "cell line": "B16-F10", "conditions": "24 h", "measurement": "concentration of maximal ROS induction", "result": "25 µM"}
{"Compound": "O=C(/C=C/c1cccc(S(=O)(=O)Nc2ccc(Cl)cc2F)c1)NO", "cell line": "MOPC-315", "assay": "cell growth", "conditions": "24 h", "how to read": "relative to: belinostat", "measurement": "relative potency", "result": 0.309}
{"Compound": "CCC(=C(c1ccc(Cl)cc1)c1ccc(OCCN2CCCC2)cc1)c1ccccc1", "cell line": "NCI-60 tumour cell lines", "conditions": "10 µM, mean over cell lines", "measurement": "growth inhibition", "result": "44%"}
{"Compound": "COc1cc(CNC(=O)C[C@H](C)CCC=C(C)C)ccc1OCc1cn(-c2ccccc2[N+](=O)[O-])nn1", "cell line": "Malme-3M melanoma cells", "assay": "SRB", "conditions": "10 µM, 48 h", "measurement": "growth percent", "result": "70.3%"}
{"Compound": "CC1=CC(OC(=O)c2ccccc2)C2(COC(=O)c3ccccc3)CCC(=C(C)C)C2C(O)CC2(C)OC2CC1 (stereo not shown)", "cell line": "HepG2, palmitic acid-induced insulin resistance", "conditions": "12.5 µM, 24 h", "measurement": "glucose consumption", "result": "5.6 ± 0.47 mM"}
{"Compound": "CC(=O)N[C@H](C(=O)N[C@H](C(=O)N[C@@H](CCCNC(=N)N)C(=O)N1Cc2ccccc2C[C@H]1C(=O)N[C@@H](Cc1ccccc1)C(N)=O)C1CCCCC1)C(C)C", "cell line": "MBP-specific BC-3 T cells", "assay": "Bio-Plex multiplex, measured: G-CSF", "conditions": "200 µg/mL, 24 h, added: MBP87-99 antigen", "measurement": "cytokine level", "result": "11.8 ± 4.3 pg/mL"}
{"Compound": "COc1cc(CNC(=O)C[C@H](C)CCC=C(C)C)ccc1OCc1cn(-c2ccccc2)nn1", "cell line": "OVCAR-3 ovarian cancer cells", "assay": "SRB", "conditions": "10 µM, 48 h", "measurement": "growth percent", "result": "117%"}
